Assay results collected from several papers.
Compare with care: the assays were run in different laboratories. Values joined by “and” are separate records of one study, mostly repeats; a detail may differ.
Target: Ephrin type-A receptor 2 (EPHA2, Homo sapiens, UniProt P29317)

Cc1cccc(-c2ccc3nc(NC(=O)C4CCCO4)nn3c2)c1 (stereo not drawn) — remaining activity (enzyme activity, Dundee kinase panel; 10 µM): 87%
CC(C)=CC1OC(C)(C)C2C=C3C(=O)C(Cl)=CC(O)C3C3C(O)C4OC4C(=O)C132 (stereo not drawn) — remaining binding (cell-free assay, competition with immobilised ligand; 10 µM): 88%
CN1CCN(Cc2ccc(NC(=O)c3cccc(C#Cc4cnc(N)c5ncccc45)c3)cc2C(F)(F)F)CC1 — remaining binding (cell-free assay, competition with immobilised ligand; 0.5 µM): 3.3%
CN1CCN(c2ccc(Nc3ncc(Cl)c(Nc4ccccc4P(C)(C)=O)n3)cc2Br)CC1 — inhibition (enzyme activity, inhibitor; 0.1 µM): 0%
CCNc1nc(Nc2cccc(S(=O)(=O)NC)c2)ncc1-c1ccc(F)c(OC)c1 — residence time (binding, SPR): 0.05 min
O=C=[N][Ru-4]123([n]4c5ccc(O)cc5c5c6c(c7cc(F)c[n+]1c7c54)C(=O)NC6=O)[S+]1CC[S+]2CC[S+]3CC1 (stereo not drawn) — remaining activity (enzyme activity; 100 nM, human enzyme, together with: 10 µM ATP; baseline: untreated): 97%
Cc1cccc(-c2ccc3nc(NC(=O)C4CCCCC4)nn3c2)c1 — remaining activity (enzyme activity, Dundee kinase panel; 10 µM): 94%
C=CC(=O)Nc1cccc(-c2cnc3[nH]cc(C(=O)NC(C)(C)C)c3n2)c1 — inhibition (kinase activity; 0.1 µM): -2% and -3%
CCN1CCN(Cc2ccc(C(=O)Nc3ccc(C)c(NCc4cnc5[nH]ccc5c4OC)c3)cc2C(F)(F)F)CC1 — remaining binding (binding, competition with immobilised ligand; 1 µM): 2%
CN1CCN(Cc2ccc(-c3ccc(CO[C@H]4CCC[C@@H]4NC(=O)c4cc(-c5cnn(C)c5)cnc4N)cc3)cc2)CC1 — inhibition (enzyme activity, inhibitor; 0.1 µM): 1%
O=C(Nc1ccc(Oc2ncnc3[nH]cc(-c4ccccc4)c23)c(F)c1)c1c2n(n(-c3cc(F)ccc3F)c1=O)CCCC2 — inhibition (enzyme activity, inhibitor; 0.5 µM): 10%
CCn1cc(C(=O)O)c(=O)c2c(N)c(F)c(NC3CCCCC3)cc21 — inhibition (kinase activity; 0.1 µM, together with: ATP at Km): 11.4%
CNC(=O)C[C@H](Cc1ccc(C#N)cc1)NC(=O)c1cc(-c2ccc(CN[C@H](C)c3ccc(C)cc3)o2)ccc1Cl — activity vs control (enzyme activity, inhibitor; 1 µM): 114%
COc1cc(OC)c(F)c(/C=C/c2cnc3ccn(S(=O)(=O)c4cn(CCF)cn4)c3n2)c1F — inhibition (1000 nM): 0%
C=CC(=O)N1CCc2ccc(-n3c(=O)ccc4cnc5ccc(-c6cnn(C)c6)cc5c43)cc21 — remaining binding (KINOMEscan; 1 µM; baseline: DMSO control): 100%
C=CC(=O)N1Cc2nc(-c3cc(-c4cc(Cl)cnc4Cl)c(F)cc3F)n(-c3ccncn3)c2C1 — inhibition (cell-free assay; 1 µM): 4.6%
Nc1ncc2c(n1)-c1c([nH]c3ccc(C4=CCOCC4)cc13)CCC2 — remaining binding (binding, competition with immobilised ligand; 1 µM): 87%
Cc1cccc(O[C@H]2CCC[C@@H](C(C)CNCc3ccncc3)C2)c1 (relative stereo) — inhibition (cell-free assay; 10 µM): -3%
NC(=O)[C@@H](O)C[C@H]1CCc2sc3ncnc(O[C@H]4CC[C@H](N5CCOCC5)CC4)c3c21 — inhibition (enzyme activity, inhibitor; 10 µM): 15%
COc1ccc(O)cc1-c1c[nH]c2ncc(-c3cncc(C(=O)N(C)C)c3)cc12 — inhibition (binding, competition with immobilised ligand; 0.2 µM): 0.96%
CCN1CCN(Cc2ccc(NC(=O)c3ccc(C)c(NC(=O)c4cncc(-c5cccs5)c4)c3)cc2C(F)(F)F)CC1 — remaining binding (binding, competition with immobilised ligand; 1 µM): 1.5%
CNC(=O)C1CCN(c2cc(C)c(F)cc2NC(=O)c2ccc(-c3cc(O)ccc3C)c(C)c2)CC1 — remaining binding (binding, competition with immobilised ligand; 1 µM): 5.4%
Nc1ncc(-c2cc(-c3cnn(CC(F)(F)F)c3)ncc2F)nc1C(=O)NC1CNCC(F)C1 (stereo not drawn) — remaining activity (enzyme activity; 1 µM; baseline: DMSO control): 98%
COc1ccc(NC(=O)Nc2ccc3c(c2)C(=O)N(C(C)CO)CC(C)C(CN(C)Cc2ccc4c(c2)OCO4)O3)cc1 (stereo not drawn) — remaining binding (binding, competition with immobilised ligand; 10 µM): 86%
